Assay results of several laboratories.
Every numbered part comes from another study and shows a few of its results, in no order. Values joined by “and” are separate records of one study, mostly repeats; a detail may differ.
Chain of UniProt Q8NG66 (whole entry, looked up): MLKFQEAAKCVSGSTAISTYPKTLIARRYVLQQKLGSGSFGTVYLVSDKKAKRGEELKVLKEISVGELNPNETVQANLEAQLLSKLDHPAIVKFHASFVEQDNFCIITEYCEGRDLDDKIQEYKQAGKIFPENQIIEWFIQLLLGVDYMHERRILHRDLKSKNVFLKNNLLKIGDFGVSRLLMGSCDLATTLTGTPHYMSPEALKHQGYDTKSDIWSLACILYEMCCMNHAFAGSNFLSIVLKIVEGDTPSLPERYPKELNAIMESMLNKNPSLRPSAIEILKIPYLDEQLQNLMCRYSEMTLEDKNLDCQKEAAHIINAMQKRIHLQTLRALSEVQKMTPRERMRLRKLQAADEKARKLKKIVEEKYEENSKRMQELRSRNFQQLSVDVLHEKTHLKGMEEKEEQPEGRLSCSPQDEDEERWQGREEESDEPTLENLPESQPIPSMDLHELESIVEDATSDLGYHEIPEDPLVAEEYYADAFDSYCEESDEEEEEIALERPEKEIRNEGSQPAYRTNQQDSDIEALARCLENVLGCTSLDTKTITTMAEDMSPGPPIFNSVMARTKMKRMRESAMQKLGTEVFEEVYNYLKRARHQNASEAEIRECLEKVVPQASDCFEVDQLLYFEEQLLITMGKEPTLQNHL
Chain of UniProt Q9Y2I7 (whole entry, looked up): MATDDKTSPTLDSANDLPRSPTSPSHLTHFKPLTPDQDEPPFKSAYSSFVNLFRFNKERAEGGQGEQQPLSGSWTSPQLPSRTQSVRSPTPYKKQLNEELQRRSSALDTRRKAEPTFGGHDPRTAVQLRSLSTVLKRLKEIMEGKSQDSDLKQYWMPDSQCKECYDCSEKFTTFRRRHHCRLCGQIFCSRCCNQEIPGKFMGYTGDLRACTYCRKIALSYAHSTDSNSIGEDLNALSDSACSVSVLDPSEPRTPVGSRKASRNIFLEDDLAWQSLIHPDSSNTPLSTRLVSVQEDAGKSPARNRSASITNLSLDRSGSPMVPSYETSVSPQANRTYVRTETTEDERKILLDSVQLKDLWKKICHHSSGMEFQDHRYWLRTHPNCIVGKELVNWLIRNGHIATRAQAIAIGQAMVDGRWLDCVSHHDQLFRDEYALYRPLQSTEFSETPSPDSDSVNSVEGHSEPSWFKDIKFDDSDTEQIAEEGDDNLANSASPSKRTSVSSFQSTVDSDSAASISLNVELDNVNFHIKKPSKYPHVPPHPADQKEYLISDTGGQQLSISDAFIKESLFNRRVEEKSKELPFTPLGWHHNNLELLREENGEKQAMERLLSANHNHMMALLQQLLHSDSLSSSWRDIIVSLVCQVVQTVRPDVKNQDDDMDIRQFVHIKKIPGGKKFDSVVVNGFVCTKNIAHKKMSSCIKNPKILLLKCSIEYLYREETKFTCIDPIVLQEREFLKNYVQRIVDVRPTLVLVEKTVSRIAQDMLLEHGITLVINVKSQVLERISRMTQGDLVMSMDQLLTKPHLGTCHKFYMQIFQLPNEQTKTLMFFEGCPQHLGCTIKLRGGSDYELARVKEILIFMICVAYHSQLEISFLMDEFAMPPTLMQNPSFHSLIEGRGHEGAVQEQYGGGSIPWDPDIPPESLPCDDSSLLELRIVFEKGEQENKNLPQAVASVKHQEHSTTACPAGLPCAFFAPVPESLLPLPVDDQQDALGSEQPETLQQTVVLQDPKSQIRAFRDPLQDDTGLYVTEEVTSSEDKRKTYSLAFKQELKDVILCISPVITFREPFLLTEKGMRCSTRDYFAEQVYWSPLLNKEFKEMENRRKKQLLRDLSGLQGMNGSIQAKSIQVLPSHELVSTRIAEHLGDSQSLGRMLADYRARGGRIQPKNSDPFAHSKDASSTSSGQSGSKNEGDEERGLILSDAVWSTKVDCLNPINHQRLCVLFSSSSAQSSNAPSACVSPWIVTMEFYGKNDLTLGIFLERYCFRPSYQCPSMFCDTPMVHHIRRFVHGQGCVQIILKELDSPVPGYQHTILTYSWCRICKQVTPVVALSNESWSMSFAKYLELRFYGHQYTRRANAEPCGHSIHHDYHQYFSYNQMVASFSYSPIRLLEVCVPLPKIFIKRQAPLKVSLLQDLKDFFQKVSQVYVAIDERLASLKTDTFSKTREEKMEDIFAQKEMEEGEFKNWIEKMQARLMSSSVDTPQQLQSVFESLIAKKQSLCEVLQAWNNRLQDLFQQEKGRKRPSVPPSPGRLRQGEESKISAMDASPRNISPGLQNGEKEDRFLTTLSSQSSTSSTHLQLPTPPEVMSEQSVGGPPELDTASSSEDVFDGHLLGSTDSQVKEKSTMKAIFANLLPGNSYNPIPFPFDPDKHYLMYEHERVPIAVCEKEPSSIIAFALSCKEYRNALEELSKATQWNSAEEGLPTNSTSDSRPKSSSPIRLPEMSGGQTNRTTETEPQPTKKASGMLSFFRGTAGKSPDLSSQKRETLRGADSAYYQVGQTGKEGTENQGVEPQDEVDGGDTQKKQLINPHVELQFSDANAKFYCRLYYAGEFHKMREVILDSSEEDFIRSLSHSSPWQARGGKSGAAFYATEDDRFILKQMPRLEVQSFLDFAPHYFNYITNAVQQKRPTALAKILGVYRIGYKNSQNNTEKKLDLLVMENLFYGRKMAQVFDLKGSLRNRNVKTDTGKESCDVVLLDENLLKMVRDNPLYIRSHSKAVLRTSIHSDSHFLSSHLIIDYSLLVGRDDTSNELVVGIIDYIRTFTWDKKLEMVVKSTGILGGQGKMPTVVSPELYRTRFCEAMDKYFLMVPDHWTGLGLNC
Chain of UniProt P48729 (whole entry, looked up): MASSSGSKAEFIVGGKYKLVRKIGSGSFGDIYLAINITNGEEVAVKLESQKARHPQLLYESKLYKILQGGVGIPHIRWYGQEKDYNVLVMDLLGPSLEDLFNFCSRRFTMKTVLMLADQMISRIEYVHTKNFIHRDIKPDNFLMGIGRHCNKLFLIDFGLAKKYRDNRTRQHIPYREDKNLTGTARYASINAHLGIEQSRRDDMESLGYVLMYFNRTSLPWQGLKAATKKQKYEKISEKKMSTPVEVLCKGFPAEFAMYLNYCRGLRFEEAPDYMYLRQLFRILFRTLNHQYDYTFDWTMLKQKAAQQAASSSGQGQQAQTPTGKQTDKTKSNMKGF
Chain of UniProt Q8TDC3 (whole entry, looked up): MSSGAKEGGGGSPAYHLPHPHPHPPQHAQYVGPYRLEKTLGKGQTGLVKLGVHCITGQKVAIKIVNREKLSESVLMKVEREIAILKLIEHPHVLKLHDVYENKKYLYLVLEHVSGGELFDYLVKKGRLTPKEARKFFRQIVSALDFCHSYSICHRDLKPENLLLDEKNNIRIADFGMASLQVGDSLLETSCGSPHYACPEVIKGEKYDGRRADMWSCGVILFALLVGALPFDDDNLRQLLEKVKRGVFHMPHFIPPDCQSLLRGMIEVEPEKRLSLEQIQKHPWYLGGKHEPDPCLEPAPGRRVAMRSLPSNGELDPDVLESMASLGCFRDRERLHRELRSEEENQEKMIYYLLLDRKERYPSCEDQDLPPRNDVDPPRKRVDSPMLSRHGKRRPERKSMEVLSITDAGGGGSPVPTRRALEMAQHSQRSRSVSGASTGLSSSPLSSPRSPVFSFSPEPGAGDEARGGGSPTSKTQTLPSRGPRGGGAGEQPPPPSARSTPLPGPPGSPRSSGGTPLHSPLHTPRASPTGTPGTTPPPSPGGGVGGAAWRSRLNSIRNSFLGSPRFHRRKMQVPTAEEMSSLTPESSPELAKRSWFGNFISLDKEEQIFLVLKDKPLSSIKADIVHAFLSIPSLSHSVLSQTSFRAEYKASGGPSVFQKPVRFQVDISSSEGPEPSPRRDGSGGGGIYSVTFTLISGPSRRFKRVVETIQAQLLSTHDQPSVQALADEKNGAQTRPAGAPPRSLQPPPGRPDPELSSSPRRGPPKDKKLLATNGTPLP
Chain of UniProt P78362 (whole entry, looked up): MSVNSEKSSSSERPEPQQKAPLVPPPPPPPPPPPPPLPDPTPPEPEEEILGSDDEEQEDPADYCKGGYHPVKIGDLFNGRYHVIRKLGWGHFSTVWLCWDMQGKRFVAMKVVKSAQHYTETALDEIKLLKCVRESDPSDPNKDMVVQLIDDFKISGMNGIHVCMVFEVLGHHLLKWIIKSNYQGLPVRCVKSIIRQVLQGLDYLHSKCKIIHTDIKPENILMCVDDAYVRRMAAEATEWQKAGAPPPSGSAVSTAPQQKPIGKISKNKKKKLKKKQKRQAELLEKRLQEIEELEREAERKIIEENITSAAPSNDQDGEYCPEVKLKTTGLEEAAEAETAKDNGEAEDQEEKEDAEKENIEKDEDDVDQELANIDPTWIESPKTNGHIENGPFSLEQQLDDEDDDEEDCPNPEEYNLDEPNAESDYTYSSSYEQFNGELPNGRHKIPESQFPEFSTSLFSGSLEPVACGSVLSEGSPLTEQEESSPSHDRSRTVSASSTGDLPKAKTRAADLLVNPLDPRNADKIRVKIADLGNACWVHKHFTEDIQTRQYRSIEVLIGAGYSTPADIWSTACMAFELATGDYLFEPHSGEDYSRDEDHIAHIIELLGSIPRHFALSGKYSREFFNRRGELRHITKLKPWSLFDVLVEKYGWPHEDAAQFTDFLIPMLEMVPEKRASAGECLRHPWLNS
Chain of UniProt Q9UBE8 (whole entry, looked up): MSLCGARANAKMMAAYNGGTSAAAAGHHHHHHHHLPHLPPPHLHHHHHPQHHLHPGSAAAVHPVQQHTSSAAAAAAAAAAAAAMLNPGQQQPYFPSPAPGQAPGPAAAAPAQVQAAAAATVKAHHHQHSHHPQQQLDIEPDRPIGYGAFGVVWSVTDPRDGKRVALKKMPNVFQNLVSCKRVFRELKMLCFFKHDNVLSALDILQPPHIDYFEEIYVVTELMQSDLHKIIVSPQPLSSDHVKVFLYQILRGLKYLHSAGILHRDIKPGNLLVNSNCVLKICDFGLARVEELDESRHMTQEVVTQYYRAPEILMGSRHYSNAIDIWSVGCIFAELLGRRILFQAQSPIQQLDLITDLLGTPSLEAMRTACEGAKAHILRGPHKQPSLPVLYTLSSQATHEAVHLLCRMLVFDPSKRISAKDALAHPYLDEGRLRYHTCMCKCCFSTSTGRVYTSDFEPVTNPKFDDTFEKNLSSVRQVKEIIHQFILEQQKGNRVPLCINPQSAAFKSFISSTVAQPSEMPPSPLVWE

Sample 1
Method: PRP chromatography estimate
Matrix: 1,9-decadiene/PBS
pH: 7.4
| Compound | logD |
| --- | --- |
| CCC[C@H]1NC(=O)CSC[C@@H](C(=O)OCC)N(C)C(=O)[C@H](CC(C)C)NC(=O)[C@@H](C)N(C)C(=O)[C@H](CC(C)C)NC(=O)[C@H](C)N(C)C(=O)[C@@H](C)N(C)C(=O)[C@@H](CC(C)C)NC(=O)CN(CCC)C1=O | 0.399 |
| CC(C)C[C@@H]1NC(=O)[C@H](Cc2cscn2)NC(=O)[C@H](C)NC(=O)[C@H](CC(C)C)NC(=O)[C@@H](CCC(=O)N2CCCC2)NC(=O)[C@H](CC(C)C)NC(=O)[C@@H](CC(C)C)NC1=O | -1.3 |
| CC(C)C[C@@H]1NC(=O)[C@H](CC(C)C)NC(=O)[C@H](CC(C)C)NC(=O)[C@H](C(C)C)NC(=O)[C@H](C)NC(=O)[C@H](CCC(=O)N2CCCC2)NC(=O)[C@H](C)NC1=O | -2.4 |
| CCC[C@H]1NC(=O)CSC[C@@H](C(=O)OCC)N(C)C(=O)[C@H](CC(C)C)NC(=O)[C@H](C)N(C)C(=O)[C@H](CC(C)C)NC(=O)[C@H](C)N(C)C(=O)[C@@H]2CCCN2C(=O)[C@@H](CC(C)C)NC(=O)CN(CCC)C1=O | 0.429 |

Sample 2
Cell line: A-375
Concentration: 100 µM
Time: 18 h
| Compound | viability |
| --- | --- |
| NS(=O)(=O)c1cc2c(cc1Cl)NCNS2(=O)=O | 88.2% |
| C[N+]1(C)CCC(=C(c2ccccc2)c2ccccc2)CC1 | 82.6% |
| C[C@H](CS)C(=O)N1CCC[C@H]1C(=O)O | 102% |

Sample 3
Compound: C[C@H](NC(=O)c1cnc2n1[C@](C)(Cc1ccc(C#N)cc1)C(=O)N2c1cc(Cl)c(F)c(Cl)c1)C(=O)NC1(c2ccccn2)CC1
Effect on: cell-free assay
Method: competition with immobilised ligand
Concentration: 1 µM
| target | remaining binding [%] |
| --- | --- |
| Tyrosine-protein kinase ABL1, phosphorylated (ABL1, Homo sapiens, UniProt P00519, M351T) | 100 |
| Uncharacterized serine/threonine-protein kinase SBK3 (SBK3, Homo sapiens, UniProt P0C264) | 100 |
| Serine/threonine-protein kinase LATS2 (LATS2, Homo sapiens, UniProt Q9NRM7) | 100 |
| Ribosomal protein S6 kinase alpha-2, C-terminal kinase domain (RPS6KA2, Homo sapiens, UniProt Q15349) | 94 |
| Mitogen-activated protein kinase kinase kinase kinase 5 (MAP4K5, Homo sapiens, UniProt Q9Y4K4) | 94 |
| Mast/stem cell growth factor receptor Kit (KIT, Homo sapiens, UniProt P10721, V559D/V654A) | 100 |
| Dual specificity protein kinase CLK1 (CLK1, Homo sapiens, UniProt P49759) | 86 |
| Mitogen-activated protein kinase kinase kinase 14 (MAP3K14, Homo sapiens, UniProt Q99558) | 100 |
| Serine/threonine-protein kinase Nek11 (NEK11, Homo sapiens, UniProt Q8NG66) | 100 |
| Cytoplasmic tyrosine-protein kinase BMX (BMX, Homo sapiens, UniProt P51813) | 77 |
| Casein kinase I isoform alpha (CSNK1A1, Homo sapiens, UniProt P48729) | 100 |
| cGMP-dependent protein kinase 1 (PRKG1, Homo sapiens, UniProt Q13976) | 62 |
| Tyrosine-protein kinase ABL1, phosphorylated (ABL1, Homo sapiens, UniProt P00519, Q252H) | 100 |
| SRSF protein kinase 2 (SRPK2, Homo sapiens, UniProt P78362) | 100 |
| RAC-alpha serine/threonine-protein kinase (AKT1, Homo sapiens, UniProt P31749) | 100 |
| Serine/threonine-protein kinase BRSK1 (BRSK1, Homo sapiens, UniProt Q8TDC3) | 100 |
| Serine/threonine-protein kinase NLK (NLK, Homo sapiens, UniProt Q9UBE8) | 100 |
| Serine/threonine-protein kinase 4 (STK4, Homo sapiens, UniProt Q13043) | 100 |
| 1-phosphatidylinositol 3-phosphate 5-kinase (PIKFYVE, Homo sapiens, UniProt Q9Y2I7) | 100 |
| SNF-related serine/threonine-protein kinase (SNRK, Homo sapiens, UniProt Q9NRH2) | 100 |

Sample 4
Target: Interferon regulatory factor 5, full length, phosphomimetic (IRF5, Homo sapiens, UniProt Q13568-2, residues 1-514, S451D/S453D/S456D/S462D)
Method: protein-binding microarray
Form: double-stranded DNA, one strand shown
Matrix: in vitro
Concentration: 940 nM top
Setting: 60-bp whole probe
Added: salmon DNA 0.4 mg/ml
Relative to: random background probes
Direction: higher = stronger binding
Shared flanks, not repeated: GCCTAGCAC … GTCTTGATTCGCTTGACGCTGCTG
| Strand | fitted relative affinity |
| --- | --- |
| TTAGGTATCGGGTTTCGGTTTGTGCTA | 8.12 z-score |
| TTAGAACGGGGGTATCGATTAGTGCTA | 6.92 z-score |
| ATAGGTTTCTATATTTGCTTGTGCTAG | 3.9 z-score |
| TTAGGTATCGGGATTCGGTTAGTGCTA | 4.65 z-score |
| ATATTGATGGCTCTCTGGACGTGCTAG | -0.178 z-score |
| TTAGGTTTCCTACCGCTTTAGTGCTAG | 0.523 z-score |
| TTAGTTTCCAGTTTCGATTAGTGCTAG | 9.78 z-score |
| TTAGGTAACGGTCTCGGTTAGTGCTAG | 1.78 z-score |

Sample 5
Species: mouse
Matrix: microsomes or S9
Concentration: 2 µM
Time: 0.5 h
| Compound | remaining compound |
| --- | --- |
| CN1Cc2ccccc2N(CCN2CCC(c3ccc(Cl)cc3C(=O)NCCN3CCN(C(=O)OC(C)(C)C)CC3)CC2)C1=O | 2.93% |
| Clc1ccccc1C1NCCc2c1[nH]c1ccccc21 (stereo not shown) | 19.5% |
| O=C(N[C@H]1C2C=CC(C2)[C@H]1C(O)(c1ccccc1)c1ccccc1)OCc1ccccc1 (stereo partly shown) | 53.4% |
| Cc1cc(C)c(C(=O)c2ccc(C(=O)NC(C)(C)C)cc2)c(C)c1 | 0.601% |

Sample 6
Cell line: mouse MPNST tumor cells
Method: high-content nuclear imaging
Measured: cell number
Concentration: 10 µM
Time: 12 h
Setting: mean of 2 replicates
Relative to: plate mean
Direction: higher = more cells
| SMILES | nuclei count |
| --- | --- |
| CCCN(CCC)C(=O)C(CCC(=O)O)NC(=O)c1ccccc1 (stereo not shown) | 2.41 z-score |
| O=C(O)c1ccc(S(=O)(=O)NC2CCCCC2)cc1 | 0.0725 z-score |
| CC[N+](CC)(CC)CCC(O)(c1ccccc1)C1CCCCC1 (stereo not shown) | 0.74 z-score |
| CCN1CCN(c2ccc(C(C)(C)NC(=O)c3cc4[nH]c5ccccc5c(=O)c4cc3F)cn2)CC1 | -4.47 z-score |
| N#Cc1cc(F)cc(-c2nc(-c3ccc(F)cn3)no2)c1 | 1.62 z-score |

Mixed results
| Compound | cell line | assay | setting | how to read | endpoint | result |
| --- | --- | --- | --- | --- | --- | --- |
| CC(C)S(=O)(=O)c1ccc2nccc(Nc3ccc4scnc4c3)c2c1 | L929 | TNF-α-induced necroptosis, inhibitor, CCK-8 | added: TNF-α, zVAD |  | EC50 | 2.49 µM and 4 µM and 4.33 µM |
| CC1=C(/C=C/C(C)=C/C=C/C(C)=C/C(=O)O)C(C)(C)CCC1 | HuT78 | trypan blue | concentration not given, unit not given | relative to: vehicle | viability | 0.988 and 0.94 and 0.971 |
